# Results gathered from unrelated publications.
# Each numbered part is a random draw from the data of one study; scales do not carry over between parts. Positions count from the first letter of the parent shown.

# Series 1 — target: CCNB3, cyclin fold, Cln2 fusion (human); technique: yeast growth competition, sequencing; medium: yeast; notes: weak parent motif; reference: not given; reading: higher = stronger binding
# Starting sequence: PKN2 docking peptide (human); VSAVQKLDFSDTM; partner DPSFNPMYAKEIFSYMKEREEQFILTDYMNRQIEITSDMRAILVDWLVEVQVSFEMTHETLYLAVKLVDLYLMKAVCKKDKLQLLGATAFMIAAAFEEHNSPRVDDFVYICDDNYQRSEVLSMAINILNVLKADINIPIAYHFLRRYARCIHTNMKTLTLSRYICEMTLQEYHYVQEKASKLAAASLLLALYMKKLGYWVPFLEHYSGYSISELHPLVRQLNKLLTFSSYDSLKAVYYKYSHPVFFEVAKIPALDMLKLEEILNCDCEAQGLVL
Change,normalised enrichment score
M13F,0.167
S2V,0.366
V4S,-0.153
D8P,0.226
S2C,0.447
D11F,0.129
F9D,0.376

# Series 2 — technique: RNA Bind-n-Seq; molecule type: RNA; medium: in vitro; tested at: 200 nM; notes: whole 134-nt RNA, ends assumed; together with: 150 mM KCl; reference: input library; reading: higher = stronger binding
# Target: Fragile X messenger ribonucleoprotein 1, C-terminal low-complexity region (Fmr1, Mus musculus, UniProt P35922)
# Shared flanks, not repeated: GGGAGUUCUACAGUCCGACGAUC … UGGAAUUCUCGGGUGUCAAGG
Oligonucleotide,log2 enrichment
UCAAGUCCUGUGCUACACAUCGUAUGUACCGAAUCGGGAAAGGGAAAGGAAAGGAAAGUAUUAUGUUACGCCGUUCGGAUCUGCACUUCC,-0.692
AGUCCUGUGCUACACAUCGUAUGUACCGAAUCGGGGAGGGGAAAAAAAGGGGAGGGGAAAGUAUUAUGUUACGCCGUUCGGAUCUGCACU,0.72
CACAGACAACACGCACCCACACAGACACAGAGGGAAGGGGUUGGGAUGGGGACAGGGUGCACAGCAGGGCGGGGUCGGACCCCAGCCCCU,1.38
AAGUCCUGUGCUACACAUCGUAUGUACCGAAUCGGGAAAAAAAGGGAGGGUUUGGGAAAGUAUUAUGUUACGCCGUUCGGAUCUGCACUU,0.572
CCUGUGCUACACAUCGUAUGUACCGAAUCGGGGUUUUUUUGGGGAAAGGGGUUUUUGGGGAAAGUAUUAUGUUACGCCGUUCGGAUCUGC,0.304
AGUCCUGUGCUACACAUCGUAUGUACCGAAUCGGCCCCGGGGCCCCGGGGCCCCGGGGAAAGUAUUAUGUUACGCCGUUCGGAUCUGCAC,-1.56

# Series 3 — technique: protein-binding microarray; molecule type: double-stranded DNA, one strand shown; medium: in vitro; tested at: not given; reading: higher = stronger binding
# Target: Max dimerization protein 1, bHLH-zipper, MAX partner unstated (MXD1, Homo sapiens, UniProt Q05195, residues 56-136)
# Notes: k-mer, scored over probes, only values ≥0.25
# Target sequence (chain): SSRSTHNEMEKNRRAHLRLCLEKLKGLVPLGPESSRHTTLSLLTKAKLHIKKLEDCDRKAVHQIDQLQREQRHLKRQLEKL
Oligonucleotide,E-score
ACGCGTAT,0.269
ATGTGCGC,0.358
CGCCACAC,0.316
ACATGTTG,0.376
CACGTTAC,0.374

# Single results of other studies
Molecule,target,assay,test system,setting,scale,quantity,result
"PhoQ, residues 284 288 289 292 302 303 SVTLVV","PhoP, residues 12 14 15 18 19 DLLYY (Escherichia coli, UniProt P23836)","Sort-seq, refers to: YFP reporter",E. coli,"PhoQ-PhoP variant library, together with: 10 µM Mg2+","reference: high Mg2+ state, higher = stronger signaling",fold induction,1.43

# Excerpt of the above (series 3):
Oligonucleotide,E-score
CGCCACAC,0.316
ACGCGTAT,0.269
ACATGTTG,0.376
